Measured values collected from several papers.
Every numbered part comes from another study and shows a few of its results, in no order.
UniProt Q99683, sequence (whole entry, looked up): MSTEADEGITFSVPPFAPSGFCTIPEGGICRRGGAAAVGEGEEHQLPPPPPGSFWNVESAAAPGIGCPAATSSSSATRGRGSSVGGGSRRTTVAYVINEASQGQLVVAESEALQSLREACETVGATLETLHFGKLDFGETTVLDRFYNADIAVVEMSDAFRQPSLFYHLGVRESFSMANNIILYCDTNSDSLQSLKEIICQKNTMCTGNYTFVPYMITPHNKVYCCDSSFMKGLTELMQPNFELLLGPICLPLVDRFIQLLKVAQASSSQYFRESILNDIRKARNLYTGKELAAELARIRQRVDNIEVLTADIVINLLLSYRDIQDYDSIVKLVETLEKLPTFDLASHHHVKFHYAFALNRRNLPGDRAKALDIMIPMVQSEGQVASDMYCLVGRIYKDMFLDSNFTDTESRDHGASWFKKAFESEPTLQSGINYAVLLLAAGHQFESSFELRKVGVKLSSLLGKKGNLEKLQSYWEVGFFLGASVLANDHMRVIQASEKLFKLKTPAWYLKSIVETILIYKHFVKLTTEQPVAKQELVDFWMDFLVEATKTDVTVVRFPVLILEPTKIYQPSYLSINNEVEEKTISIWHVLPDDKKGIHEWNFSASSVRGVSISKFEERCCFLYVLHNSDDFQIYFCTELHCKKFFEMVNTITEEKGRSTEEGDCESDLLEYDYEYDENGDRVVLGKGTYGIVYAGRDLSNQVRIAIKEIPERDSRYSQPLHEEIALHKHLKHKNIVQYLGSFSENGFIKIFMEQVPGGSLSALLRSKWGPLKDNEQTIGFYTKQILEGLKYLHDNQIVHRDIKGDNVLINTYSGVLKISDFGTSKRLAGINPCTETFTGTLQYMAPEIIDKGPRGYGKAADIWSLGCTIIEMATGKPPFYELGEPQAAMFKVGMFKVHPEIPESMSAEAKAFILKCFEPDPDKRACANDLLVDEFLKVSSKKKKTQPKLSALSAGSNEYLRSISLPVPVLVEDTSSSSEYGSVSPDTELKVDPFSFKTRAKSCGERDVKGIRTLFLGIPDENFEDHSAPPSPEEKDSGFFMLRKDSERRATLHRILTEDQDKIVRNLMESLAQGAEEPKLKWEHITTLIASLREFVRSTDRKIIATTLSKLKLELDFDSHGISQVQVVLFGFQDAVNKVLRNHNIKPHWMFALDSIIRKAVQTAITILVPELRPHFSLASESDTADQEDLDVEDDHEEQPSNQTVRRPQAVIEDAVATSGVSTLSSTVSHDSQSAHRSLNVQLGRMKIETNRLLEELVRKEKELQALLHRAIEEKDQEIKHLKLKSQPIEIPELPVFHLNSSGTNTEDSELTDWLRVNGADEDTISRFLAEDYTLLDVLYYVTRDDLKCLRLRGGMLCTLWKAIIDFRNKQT
UniProt Q6PHR2, sequence (whole entry, looked up): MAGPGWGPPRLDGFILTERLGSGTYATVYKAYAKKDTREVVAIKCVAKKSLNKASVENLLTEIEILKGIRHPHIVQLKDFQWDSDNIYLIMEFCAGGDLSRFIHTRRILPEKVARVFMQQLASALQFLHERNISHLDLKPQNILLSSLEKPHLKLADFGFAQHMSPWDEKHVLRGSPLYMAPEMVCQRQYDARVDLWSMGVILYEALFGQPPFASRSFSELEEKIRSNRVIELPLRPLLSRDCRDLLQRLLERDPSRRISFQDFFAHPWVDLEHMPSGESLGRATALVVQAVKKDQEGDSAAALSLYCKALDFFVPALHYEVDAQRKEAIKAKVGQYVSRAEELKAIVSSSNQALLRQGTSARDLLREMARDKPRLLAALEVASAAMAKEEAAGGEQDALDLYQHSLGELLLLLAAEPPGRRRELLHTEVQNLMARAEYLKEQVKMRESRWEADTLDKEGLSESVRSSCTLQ
UniProt Q12866, sequence (whole entry, looked up): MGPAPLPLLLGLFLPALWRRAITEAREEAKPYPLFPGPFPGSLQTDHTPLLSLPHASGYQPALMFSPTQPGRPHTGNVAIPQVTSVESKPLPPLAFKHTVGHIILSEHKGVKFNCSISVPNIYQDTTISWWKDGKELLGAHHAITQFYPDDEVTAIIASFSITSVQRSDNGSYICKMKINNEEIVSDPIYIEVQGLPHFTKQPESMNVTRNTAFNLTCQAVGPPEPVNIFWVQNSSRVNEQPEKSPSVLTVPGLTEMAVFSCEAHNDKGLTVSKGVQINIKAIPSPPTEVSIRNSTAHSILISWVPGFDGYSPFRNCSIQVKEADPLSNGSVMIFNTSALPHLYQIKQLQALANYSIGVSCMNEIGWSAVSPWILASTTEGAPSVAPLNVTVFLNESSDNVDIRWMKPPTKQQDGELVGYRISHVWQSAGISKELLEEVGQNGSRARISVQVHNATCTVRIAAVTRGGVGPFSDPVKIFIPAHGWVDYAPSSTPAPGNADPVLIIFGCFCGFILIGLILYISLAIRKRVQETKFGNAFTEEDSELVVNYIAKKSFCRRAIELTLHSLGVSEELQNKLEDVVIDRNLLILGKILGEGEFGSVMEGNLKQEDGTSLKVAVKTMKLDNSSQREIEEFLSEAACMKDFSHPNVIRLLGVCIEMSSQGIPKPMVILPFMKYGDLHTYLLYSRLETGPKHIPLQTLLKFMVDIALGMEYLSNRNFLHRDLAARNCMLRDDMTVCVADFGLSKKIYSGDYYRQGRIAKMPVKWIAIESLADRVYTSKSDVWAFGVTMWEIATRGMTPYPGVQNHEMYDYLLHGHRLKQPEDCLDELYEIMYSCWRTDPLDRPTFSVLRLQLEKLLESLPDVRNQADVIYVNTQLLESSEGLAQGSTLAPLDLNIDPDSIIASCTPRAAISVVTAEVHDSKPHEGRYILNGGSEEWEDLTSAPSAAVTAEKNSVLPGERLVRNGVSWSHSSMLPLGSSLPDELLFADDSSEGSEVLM
UniProt P42685, sequence (whole entry, looked up): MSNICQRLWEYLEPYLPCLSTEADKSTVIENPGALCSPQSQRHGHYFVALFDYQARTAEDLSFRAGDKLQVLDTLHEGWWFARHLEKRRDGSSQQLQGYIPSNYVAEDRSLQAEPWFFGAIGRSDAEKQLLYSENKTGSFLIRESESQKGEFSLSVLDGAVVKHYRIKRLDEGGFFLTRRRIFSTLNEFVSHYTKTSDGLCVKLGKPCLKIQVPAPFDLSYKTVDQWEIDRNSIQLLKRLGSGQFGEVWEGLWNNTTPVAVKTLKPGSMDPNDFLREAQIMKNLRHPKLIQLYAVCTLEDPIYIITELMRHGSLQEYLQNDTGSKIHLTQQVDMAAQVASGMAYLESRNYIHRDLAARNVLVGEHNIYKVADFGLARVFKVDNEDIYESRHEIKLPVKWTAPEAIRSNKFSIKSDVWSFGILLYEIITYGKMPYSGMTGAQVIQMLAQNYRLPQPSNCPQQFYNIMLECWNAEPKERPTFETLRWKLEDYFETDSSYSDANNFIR
UniProt Q9UL54, sequence (whole entry, looked up): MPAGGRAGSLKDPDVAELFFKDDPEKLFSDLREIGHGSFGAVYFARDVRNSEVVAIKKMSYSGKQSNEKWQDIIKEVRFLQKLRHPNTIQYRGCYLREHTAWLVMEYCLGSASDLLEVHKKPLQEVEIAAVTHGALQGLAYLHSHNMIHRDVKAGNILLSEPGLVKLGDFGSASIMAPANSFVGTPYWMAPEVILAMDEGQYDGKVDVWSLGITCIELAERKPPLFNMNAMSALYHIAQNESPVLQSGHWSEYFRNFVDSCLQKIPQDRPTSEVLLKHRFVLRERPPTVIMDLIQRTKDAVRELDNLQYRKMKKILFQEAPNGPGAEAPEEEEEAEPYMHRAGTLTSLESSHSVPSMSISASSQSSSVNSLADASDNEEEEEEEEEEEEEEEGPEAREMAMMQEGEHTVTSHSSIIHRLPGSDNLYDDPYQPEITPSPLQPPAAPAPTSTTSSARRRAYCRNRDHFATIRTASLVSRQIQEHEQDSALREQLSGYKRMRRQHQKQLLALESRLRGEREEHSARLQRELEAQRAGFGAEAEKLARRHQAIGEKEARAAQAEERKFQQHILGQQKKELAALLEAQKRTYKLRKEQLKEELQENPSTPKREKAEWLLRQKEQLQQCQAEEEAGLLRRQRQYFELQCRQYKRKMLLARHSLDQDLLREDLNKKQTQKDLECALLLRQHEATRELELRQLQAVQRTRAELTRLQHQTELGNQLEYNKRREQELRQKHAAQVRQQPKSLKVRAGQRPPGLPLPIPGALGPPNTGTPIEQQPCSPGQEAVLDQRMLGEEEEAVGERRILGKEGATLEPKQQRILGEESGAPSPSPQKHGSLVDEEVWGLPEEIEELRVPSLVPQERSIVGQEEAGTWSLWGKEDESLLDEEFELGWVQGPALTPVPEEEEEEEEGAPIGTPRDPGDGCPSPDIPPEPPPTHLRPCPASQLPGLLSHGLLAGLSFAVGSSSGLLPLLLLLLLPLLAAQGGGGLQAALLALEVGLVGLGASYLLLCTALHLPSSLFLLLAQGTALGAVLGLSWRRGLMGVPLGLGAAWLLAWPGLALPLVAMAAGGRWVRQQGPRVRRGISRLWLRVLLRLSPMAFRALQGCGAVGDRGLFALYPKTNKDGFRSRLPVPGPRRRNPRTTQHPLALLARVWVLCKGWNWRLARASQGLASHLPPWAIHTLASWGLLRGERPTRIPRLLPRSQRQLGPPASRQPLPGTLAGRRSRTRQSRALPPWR

Sample 1 — action: agonist
Target: Beta-1 adrenergic receptor (ADRB1, Homo sapiens, UniProt P08588)
UniProt P08588, sequence (whole entry, looked up): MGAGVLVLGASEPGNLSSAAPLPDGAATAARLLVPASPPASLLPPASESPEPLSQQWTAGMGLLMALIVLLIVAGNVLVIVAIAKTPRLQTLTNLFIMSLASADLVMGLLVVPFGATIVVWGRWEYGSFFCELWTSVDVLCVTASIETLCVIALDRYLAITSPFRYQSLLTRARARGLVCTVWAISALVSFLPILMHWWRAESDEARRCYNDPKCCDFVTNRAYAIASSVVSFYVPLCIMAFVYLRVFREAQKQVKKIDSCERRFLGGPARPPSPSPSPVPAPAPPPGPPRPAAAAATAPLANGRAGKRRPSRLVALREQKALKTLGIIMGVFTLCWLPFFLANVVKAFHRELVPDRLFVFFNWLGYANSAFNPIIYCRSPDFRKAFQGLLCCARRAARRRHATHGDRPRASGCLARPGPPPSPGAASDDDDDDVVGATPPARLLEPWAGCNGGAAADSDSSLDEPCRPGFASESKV
SMILES	EC50 [µM]
COc1ccc(-c2cc(N3CCCC3)nc(N)n2)c2ccc(C)nc12	≥ 100
CN(C)c1ccc(-c2nnnn2[C@H]2CO[C@H]3[C@@H]2OC[C@@H]3N[S+](=O)([O-])c2ccc3ccccc3c2)cc1	≥ 100
N#C/C(=C\c1ccc(O)c(O)c1)C(=O)NCCc1ccccc1	≥ 100
Cc1cccc(NC(=O)COc2ccc3c(C)cc(=O)oc3c2)c1	≥ 100
COc1ccccc1-c1nccc2c(=O)cc(N(C)C)oc12	≥ 100
OC1(c2nc(Nc3cccc(N4CCOCC4)c3)n[nH]2)CCOCC1	≥ 100
Cc1noc2c(-c3cccnc3)cc(-c3cccc(C(F)(F)F)c3)nc12	≥ 100
OC(COc1cccc2[nH]ccc12)Cn1cc(-n2cccc2)cn1 (stereo not shown)	≥ 100
COc1ccc(C(=O)NC[C@H]2O[C@@H](CC(=O)N3CCN(c4ccccc4OC)CC3)[C@H](O)[C@@H]2O)cc1	≥ 100
COc1cc(CNC(C)C)ccc1OCC(O)CN1CCSCC1 (stereo not shown)	≥ 100

Sample 2 — concentration: 0.1 µM
SMILES: Nc1c(C(=O)NCc2ccc(C(=O)NCCCC3CCCCC3)cc2)cnn1-c1ccccc1
target	read-out	technique	remaining binding [%]
EPHA2 (Homo sapiens, UniProt P29317)	cell-free assay	competition with immobilised ligand	100
MAP3K5 (Homo sapiens, UniProt Q99683)	cell-free assay	competition with immobilised ligand	81
TNK1 (Homo sapiens, UniProt Q13470)	cell-free assay	competition with immobilised ligand	91
CDK19 (Homo sapiens, UniProt Q9BWU1)	–	competition binding	99
COQ8B (Homo sapiens, UniProt Q96D53)	cell-free assay	competition with immobilised ligand	100
WNK1 (Homo sapiens, UniProt Q9H4A3)	cell-free assay	competition with immobilised ligand	100
MATK (Homo sapiens, UniProt P42679)	cell-free assay	competition with immobilised ligand	100
BMPR2 (Homo sapiens, UniProt Q13873)	cell-free assay	competition with immobilised ligand	100

Sample 3 — cell line: A-375; concentration: 100 µM; time: 18 h
SMILES	viability [%]
CCOC(=O)[N-]c1cn(N2CCOCC2)n[o+]1	104
CCOC(=O)N[C@@H]1CC[C@@H]2[C@@H](C1)C[C@H]1C(=O)O[C@H](C)[C@H]1[C@H]2/C=C/c1ccc(-c2cccc(F)c2)cn1	103
CC[C@]1(O)C[C@H]2CN(CCc3c([nH]c4ccccc34)[C@@](C(=O)OC)(c3cc4c(cc3OC)N(C=O)[C@H]3[C@@](O)(C(=O)OC)[C@H](OC(C)=O)[C@]5(CC)C=CCN6CC[C@]43[C@@H]65)C2)C1	45.2
Cc1c(-c2ccccc2)oc2c(C(=O)OCCN3CCCCC3)cccc2c1=O	18.9
C=CCc1ccc(O)c(-c2cc(CC=C)ccc2O)c1	7.75
O=C(N[C@H](CO)[C@H](O)c1ccc([N+](=O)[O-])cc1)C(Cl)Cl	101
CC1=C(C(=O)O)N2C(=O)[C@@H](NC(=O)[C@H](N)c3ccc(O)cc3)[C@H]2SC1	98.2

Sample 4 — SMILES: COc1cc2ncnc(Nc3ccc(Oc4ccccc4)cc3)c2cc1OC; read-out: enzyme activity; action: inhibitor; concentration: 0.5 µM; relative to: control
target	remaining activity
ULK3 (Homo sapiens, UniProt Q6PHR2)	94.7%
JAK3 (Homo sapiens, UniProt P52333)	93.1%
TAOK2 (Homo sapiens, UniProt Q9UL54)	97.8%
MAP3K14 (Homo sapiens, UniProt Q99558)	93%
RPS6KA2 (Homo sapiens, UniProt Q15349)	98%
FRK (Homo sapiens, UniProt P42685)	72.2%
MST1R (Homo sapiens, UniProt Q04912)	95.7%
MERTK (Homo sapiens, UniProt Q12866)	51.2%
NEK6 (Homo sapiens, UniProt Q9HC98)	93%
MAP2K2 (Homo sapiens, UniProt P36507)	105%
LCK (Homo sapiens, UniProt P06239)	4.72%
TEK (Homo sapiens, UniProt Q02763)	99.7%
GSK3B (Homo sapiens, UniProt P49841)	109%
TBK1 (Homo sapiens, UniProt Q9UHD2)	93.7%
ARAF (Homo sapiens, UniProt P10398)	73.3%
CSNK1G2 (Homo sapiens, UniProt P78368)	99.9%
ACVR1B (Homo sapiens, UniProt P36896)	97.5%
GRK7 (Homo sapiens, UniProt Q8WTQ7)	103%
MAPKAPK2 (Homo sapiens, UniProt P49137)	103%
FGFR3 (Homo sapiens, UniProt P22607)	87.1%
FGFR1 (Homo sapiens, UniProt P11362)	85%
MAPK3 (Homo sapiens, UniProt P27361)	105%
ABL2 (Homo sapiens, UniProt P42684)	96.4%
MAP3K5 (Homo sapiens, UniProt Q99683)	107%
